# Assay results gathered from unrelated publications.
# Every numbered part comes from another study and shows a few of its results, in no order.
# Sequence of UniProt P42336 (whole entry, unmodified, looked up): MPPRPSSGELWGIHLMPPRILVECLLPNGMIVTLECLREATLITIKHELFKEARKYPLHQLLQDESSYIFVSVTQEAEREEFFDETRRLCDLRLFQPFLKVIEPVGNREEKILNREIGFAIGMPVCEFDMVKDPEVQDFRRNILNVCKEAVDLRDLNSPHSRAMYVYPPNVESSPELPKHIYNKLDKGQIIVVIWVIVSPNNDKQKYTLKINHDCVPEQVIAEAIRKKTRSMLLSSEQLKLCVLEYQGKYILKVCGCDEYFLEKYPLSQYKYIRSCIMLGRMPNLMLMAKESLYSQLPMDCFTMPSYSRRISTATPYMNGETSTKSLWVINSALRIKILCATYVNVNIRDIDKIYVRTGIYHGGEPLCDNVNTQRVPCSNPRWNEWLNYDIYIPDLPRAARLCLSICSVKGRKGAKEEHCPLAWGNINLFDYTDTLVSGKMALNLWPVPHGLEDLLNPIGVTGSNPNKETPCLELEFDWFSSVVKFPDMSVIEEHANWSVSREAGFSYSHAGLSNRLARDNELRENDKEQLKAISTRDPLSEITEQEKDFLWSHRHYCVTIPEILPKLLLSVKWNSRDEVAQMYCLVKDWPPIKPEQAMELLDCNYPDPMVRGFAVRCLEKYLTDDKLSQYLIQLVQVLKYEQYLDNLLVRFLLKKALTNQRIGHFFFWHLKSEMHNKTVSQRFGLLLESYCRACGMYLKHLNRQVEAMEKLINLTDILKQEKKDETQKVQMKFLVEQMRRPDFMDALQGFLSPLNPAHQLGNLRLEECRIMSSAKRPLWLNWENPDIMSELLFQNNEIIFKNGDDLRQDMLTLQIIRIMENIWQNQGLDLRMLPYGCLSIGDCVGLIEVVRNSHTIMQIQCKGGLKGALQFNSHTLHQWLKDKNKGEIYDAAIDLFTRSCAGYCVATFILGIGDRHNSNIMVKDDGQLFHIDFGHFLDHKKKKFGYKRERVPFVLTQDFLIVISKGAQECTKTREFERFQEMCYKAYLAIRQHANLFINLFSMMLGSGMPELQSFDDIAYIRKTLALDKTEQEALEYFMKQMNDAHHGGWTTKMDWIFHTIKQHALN
# Sequence of UniProt O75582 (whole entry, looked up): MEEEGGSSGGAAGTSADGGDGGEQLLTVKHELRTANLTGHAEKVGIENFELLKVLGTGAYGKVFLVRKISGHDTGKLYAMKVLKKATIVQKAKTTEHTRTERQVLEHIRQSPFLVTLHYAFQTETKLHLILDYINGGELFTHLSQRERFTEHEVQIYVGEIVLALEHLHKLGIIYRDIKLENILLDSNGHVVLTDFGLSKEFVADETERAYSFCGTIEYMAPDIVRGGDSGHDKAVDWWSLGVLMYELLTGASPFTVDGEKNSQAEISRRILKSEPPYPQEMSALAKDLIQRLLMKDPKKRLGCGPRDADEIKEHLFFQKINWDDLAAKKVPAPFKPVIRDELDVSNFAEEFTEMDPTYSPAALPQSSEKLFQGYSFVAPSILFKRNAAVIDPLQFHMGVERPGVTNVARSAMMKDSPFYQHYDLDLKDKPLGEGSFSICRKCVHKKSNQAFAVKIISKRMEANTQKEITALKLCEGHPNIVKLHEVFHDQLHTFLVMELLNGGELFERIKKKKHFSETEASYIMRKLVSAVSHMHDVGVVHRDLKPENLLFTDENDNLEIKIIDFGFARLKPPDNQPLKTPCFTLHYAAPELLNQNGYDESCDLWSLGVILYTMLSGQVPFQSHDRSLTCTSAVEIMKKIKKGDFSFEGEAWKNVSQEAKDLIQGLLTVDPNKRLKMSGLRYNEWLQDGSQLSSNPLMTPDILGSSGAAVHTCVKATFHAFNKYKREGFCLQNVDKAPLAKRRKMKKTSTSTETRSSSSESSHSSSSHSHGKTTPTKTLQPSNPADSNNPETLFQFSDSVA
# Sequence of UniProt O14757 (whole entry, looked up): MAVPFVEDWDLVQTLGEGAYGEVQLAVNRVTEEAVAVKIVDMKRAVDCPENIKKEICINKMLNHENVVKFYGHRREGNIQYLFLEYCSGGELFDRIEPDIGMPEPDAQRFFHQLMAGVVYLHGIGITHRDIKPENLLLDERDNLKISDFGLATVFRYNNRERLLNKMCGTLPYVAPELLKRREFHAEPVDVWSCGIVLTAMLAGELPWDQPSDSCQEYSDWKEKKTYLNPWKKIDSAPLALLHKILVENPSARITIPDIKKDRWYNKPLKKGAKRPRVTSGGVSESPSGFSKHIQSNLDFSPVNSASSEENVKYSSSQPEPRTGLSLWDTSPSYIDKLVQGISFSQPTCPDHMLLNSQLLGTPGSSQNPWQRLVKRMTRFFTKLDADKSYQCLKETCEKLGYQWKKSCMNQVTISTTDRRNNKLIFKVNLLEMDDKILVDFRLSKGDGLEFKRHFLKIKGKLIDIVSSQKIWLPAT
# Sequence of UniProt Q9P286 (whole entry, looked up): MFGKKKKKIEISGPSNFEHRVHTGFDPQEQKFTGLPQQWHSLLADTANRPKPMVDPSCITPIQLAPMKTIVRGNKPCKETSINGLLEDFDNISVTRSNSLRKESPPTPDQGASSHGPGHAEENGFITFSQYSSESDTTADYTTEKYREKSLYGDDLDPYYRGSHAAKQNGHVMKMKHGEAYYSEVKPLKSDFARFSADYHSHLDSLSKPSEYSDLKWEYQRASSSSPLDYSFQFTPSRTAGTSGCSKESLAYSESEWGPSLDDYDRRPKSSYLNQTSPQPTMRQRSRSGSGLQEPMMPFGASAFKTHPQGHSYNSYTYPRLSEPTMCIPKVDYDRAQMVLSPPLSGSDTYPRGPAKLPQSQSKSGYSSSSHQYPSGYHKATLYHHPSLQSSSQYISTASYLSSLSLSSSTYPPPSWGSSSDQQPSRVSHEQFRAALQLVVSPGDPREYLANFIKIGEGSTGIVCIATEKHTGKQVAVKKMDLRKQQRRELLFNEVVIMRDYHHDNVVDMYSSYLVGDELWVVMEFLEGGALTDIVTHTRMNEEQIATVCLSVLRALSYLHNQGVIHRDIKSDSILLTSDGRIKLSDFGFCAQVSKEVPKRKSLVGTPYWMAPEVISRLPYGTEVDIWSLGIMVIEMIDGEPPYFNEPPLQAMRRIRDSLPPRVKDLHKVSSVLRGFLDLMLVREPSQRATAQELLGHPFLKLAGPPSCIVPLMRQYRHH
# Sequence of UniProt Q9UPE1 (whole entry, looked up): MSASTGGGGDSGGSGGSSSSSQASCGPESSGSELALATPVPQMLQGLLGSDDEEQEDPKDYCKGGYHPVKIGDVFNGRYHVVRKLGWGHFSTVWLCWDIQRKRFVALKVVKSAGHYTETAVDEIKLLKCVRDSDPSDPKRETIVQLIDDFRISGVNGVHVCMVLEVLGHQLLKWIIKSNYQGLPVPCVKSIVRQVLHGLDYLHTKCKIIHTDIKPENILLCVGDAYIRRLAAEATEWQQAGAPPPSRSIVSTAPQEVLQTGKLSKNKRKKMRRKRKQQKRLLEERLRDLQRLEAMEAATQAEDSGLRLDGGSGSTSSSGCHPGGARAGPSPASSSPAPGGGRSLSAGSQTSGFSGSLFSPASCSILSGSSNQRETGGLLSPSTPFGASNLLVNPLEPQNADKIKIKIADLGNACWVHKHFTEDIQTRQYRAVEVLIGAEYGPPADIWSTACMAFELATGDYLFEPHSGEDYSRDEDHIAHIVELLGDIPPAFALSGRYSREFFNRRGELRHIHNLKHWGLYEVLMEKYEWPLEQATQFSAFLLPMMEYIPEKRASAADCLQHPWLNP
# Sequence of UniProt P31152 (whole entry, looked up): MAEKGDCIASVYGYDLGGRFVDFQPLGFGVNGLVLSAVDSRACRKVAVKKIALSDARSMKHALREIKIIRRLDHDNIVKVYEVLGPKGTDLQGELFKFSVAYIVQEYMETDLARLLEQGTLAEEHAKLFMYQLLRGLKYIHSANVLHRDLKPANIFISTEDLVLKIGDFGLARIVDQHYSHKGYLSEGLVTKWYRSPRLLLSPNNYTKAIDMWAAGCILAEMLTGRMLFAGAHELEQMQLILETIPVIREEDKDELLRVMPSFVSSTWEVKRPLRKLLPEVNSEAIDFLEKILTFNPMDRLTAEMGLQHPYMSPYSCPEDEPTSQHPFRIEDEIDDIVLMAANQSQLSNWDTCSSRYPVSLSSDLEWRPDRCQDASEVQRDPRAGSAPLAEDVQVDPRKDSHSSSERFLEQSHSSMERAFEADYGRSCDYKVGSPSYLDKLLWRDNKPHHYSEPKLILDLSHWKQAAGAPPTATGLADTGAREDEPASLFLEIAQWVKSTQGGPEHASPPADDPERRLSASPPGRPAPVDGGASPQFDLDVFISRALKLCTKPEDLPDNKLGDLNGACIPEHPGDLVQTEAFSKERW
# Sequence of UniProt P68400 (whole entry, looked up): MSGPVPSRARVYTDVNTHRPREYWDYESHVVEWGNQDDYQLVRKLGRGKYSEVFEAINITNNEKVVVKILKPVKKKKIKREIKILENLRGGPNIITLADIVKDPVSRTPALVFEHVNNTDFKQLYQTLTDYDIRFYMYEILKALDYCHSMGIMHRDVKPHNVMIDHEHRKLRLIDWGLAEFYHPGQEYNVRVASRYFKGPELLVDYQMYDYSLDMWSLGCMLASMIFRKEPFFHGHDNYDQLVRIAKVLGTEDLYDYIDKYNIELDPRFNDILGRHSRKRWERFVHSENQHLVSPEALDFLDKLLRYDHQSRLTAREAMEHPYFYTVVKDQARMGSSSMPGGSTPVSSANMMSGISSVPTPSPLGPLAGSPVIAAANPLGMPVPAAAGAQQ
# Sequence of UniProt P78368 (whole entry, looked up): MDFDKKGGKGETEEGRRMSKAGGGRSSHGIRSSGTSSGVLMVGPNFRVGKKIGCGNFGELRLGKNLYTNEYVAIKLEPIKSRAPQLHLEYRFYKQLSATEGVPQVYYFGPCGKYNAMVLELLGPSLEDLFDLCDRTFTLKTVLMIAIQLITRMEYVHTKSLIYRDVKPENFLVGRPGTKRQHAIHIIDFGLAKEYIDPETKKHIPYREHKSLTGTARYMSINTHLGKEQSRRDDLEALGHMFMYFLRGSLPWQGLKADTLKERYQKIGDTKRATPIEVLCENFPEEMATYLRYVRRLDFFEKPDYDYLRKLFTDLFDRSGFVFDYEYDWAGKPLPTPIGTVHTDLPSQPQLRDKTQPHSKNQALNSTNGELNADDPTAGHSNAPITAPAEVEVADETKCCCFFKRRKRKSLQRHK

# Sample 1 — effect on: cell-free assay; technique: competition with immobilised ligand; tested at: 1 µM
# SMILES: Cc1c(NC(=O)c2cc(C(N)=O)nc3cc(F)ccc23)c(C(F)(F)F)nn1Cc1ccc(C(C)(C)C)cc1
target,remaining binding
"PLK3 (Homo sapiens, UniProt Q9H4B4)",94%
"TYRO3 (Homo sapiens, UniProt Q06418)",100%
"LATS1 (Homo sapiens, UniProt O95835)",100%
"MAP3K7 (Homo sapiens, UniProt O43318)",100%
"MAPK6 (Homo sapiens, UniProt Q16659)",79%
"MAPK4 (Homo sapiens, UniProt P31152)",100%
"LIM domain kinase 1 (LIMK1, Homo sapiens, UniProt P53667)",100%
"PIK3CA (Homo sapiens, UniProt P42336, H1047L)",100%
"EPHB6 (Homo sapiens, UniProt O15197)",100%
"CDK5 (Homo sapiens, UniProt Q00535)",76%
"PIK3CB (Homo sapiens, UniProt P42338)",100%
"SRPK3 (Homo sapiens, UniProt Q9UPE1)",100%
"PKMYT1 (Homo sapiens, UniProt Q99640)",100%
"BRAF (Homo sapiens, UniProt P15056)",81%
"CSNK1G2 (Homo sapiens, UniProt P78368)",100%
"PTK2 (Homo sapiens, UniProt Q05397)",100%
"DAPK1 (Homo sapiens, UniProt P53355)",100%
"EPHB3 (Homo sapiens, UniProt P54753)",100%
"PIK3CA (Homo sapiens, UniProt P42336, E545A)",100%
"PAK5 (Homo sapiens, UniProt Q9P286)",100%
"CDC42BPA (Homo sapiens, UniProt Q5VT25)",100%
"STK24 (Homo sapiens, UniProt Q9Y6E0)",100%
"CDK9 (Homo sapiens, UniProt P50750)",100%
"CSNK2A1 (Homo sapiens, UniProt P68400)",100%
"CHEK1 (Homo sapiens, UniProt O14757)",100%

# Sample 2 — organism: Sarcocystis neurona; effect on: parasite growth; tested at: 10 µM; notes: secondary screen
Structure (SMILES),inhibition [%]
CC(=O)[C@@]1(O)CC[C@H]2[C@@H]3C[C@H](C)C4=CC(=O)C=C[C@]4(C)[C@@]3(F)[C@@H](O)C[C@@]21C,-52.7
CN1CCN(CCCN2c3ccccc3Sc3ccc(Cl)cc32)CC1,-6.9
Cc1nc2ccccn2c(=O)c1CCN1CCC(C(=O)c2ccc(F)cc2)CC1,12.3
CC#C[C@]1(O)CC[C@H]2[C@@H]3CCC4=CC(=O)CCC4=C3[C@@H](c3ccc(N(C)C)cc3)C[C@@]21C,8.6
C=C1/C(=C\C=C2/CCC[C@]3(C)[C@@H]([C@H](C)/C=C/[C@@H](O)C4CC4)CC[C@@H]23)C[C@@H](O)C[C@@H]1O,-28.1
CC12CC3CC(C)(C1)CC(N)(C3)C2,-32.3
CO[C@H]1/C=C/O[C@@]2(C)Oc3c(C)c(O)c4c(O)c(c(/C=N/N5CCN(C6CCCC6)CC5)c(O)c4c3C2=O)NC(=O)/C(C)=C\C=C\[C@H](C)[C@H](O)[C@@H](C)[C@@H](O)[C@@H](C)[C@H](OC(C)=O)[C@@H]1C,-67.3

# Sample 3 — matrix: EL4 tumour; dose: dose not given; baseline: vehicle
# SMILES: CC(=O)N[C@@H](Cc1c[nH]c2ccccc12)C(=O)N[C@@H](CCC(=O)C=[N+]=[N-])C(=O)OC(C)C
technique,measured,species,log2 fold change
metabolomics,guanosine 3'-monophosphate,mouse,1.36
,erythronate*,"mouse, EL4 tumour-bearing",-0.138
,N2-acetyllysine,"mouse, EL4 tumour-bearing",-1.08
,sarcosine,"mouse, EL4 tumour-bearing",-0.0154
,threonine,"mouse, EL4 tumour-bearing",0.323
,UDP-glucuronate,"mouse, EL4 tumour-bearing",-0.124
,cysteine-glutathione disulfide,Mus musculus,2.06

# Sample 4 — technique: PRP chromatography; notes: linear fit, 1 mL
Compound,"logD 1,9-decadiene/water"
CC(C)C[C@@H]1NC(=O)[C@H](Cc2cscn2)NC(=O)[C@H](CCC(=O)N2CCCC2)NC(=O)[C@H](C)NC(=O)[C@@H](Cc2cscn2)NC(=O)[C@H](CC(C)C)NC(=O)[C@@H](CC(C)C)NC1=O,-4.39 log units
CC(C)C[C@@H]1NC(=O)[C@H](C)NC(=O)[C@H](CC(C)C)NC(=O)[C@@H](CCC(=O)N2CCCC2)NC(=O)[C@H](CC(C)C)NC(=O)[C@@H](CC(C)C)NC(=O)[C@H](CC(C)C)NC1=O,-0.54 log units
CC(C)C[C@@H]1NC(=O)[C@H](C(C)C)NC(=O)[C@H](CC(C)C)NC(=O)[C@@H](CC(C)C)NC(=O)[C@H](CC(C)C)NC(=O)[C@H](C(C)C)NC(=O)[C@H](Cc2cscn2)NC1=O,-0.355 log units
CC(C)C[C@@H]1NC(=O)[C@@H](C)NC(=O)[C@@H](CC(C)C)NC(=O)[C@@H](C(C)C)NC(=O)[C@H](C(C)C)NC(=O)[C@H](CC(C)C)NC(=O)[C@@H](CC(C)C)NC1=O,0.0568 log units
CC(C)C[C@@H]1NC(=O)[C@H](C(C)C)NC(=O)[C@@H](CC(C)C)NC(=O)[C@@H](CC(C)C)NC(=O)[C@@H](Cc2cscn2)NC(=O)[C@H](CC(C)C)NC(=O)[C@@H](CC(C)C)NC1=O,1.09 log units
CC(C)C[C@@H]1NC(=O)[C@H](C)NC(=O)[C@H](CC(C)C)NC(=O)[C@@H](CC(C)C)NC(=O)[C@H](CC(C)C)NC(=O)[C@H](C(C)C)NC(=O)[C@H](CCC(=O)N2CCCC2)NC1=O,-0.687 log units

# Sample 5 — effect on: binding; tested at: 1 µM
# SMILES: COc1ccc2[nH]c3c4[nH]c5ccc(OC)cc5c4c4c(c3c2c1)C(=O)NC4=O
target,technique,remaining binding [%]
"PIK3CA (Homo sapiens, UniProt P42336, E545K)",,84
"MAP3K14 (Homo sapiens, UniProt Q99558)",,20
"NEK10 (Homo sapiens, UniProt Q6ZWH5)",,93
"SGK2 (Homo sapiens, UniProt Q9HBY8)",,46
"BRSK2 (Homo sapiens, UniProt Q8IWQ3)",,6.2
"Ribosomal protein S6 kinase alpha-5, N-terminal kinase domain (RPS6KA5, Homo sapiens, UniProt O75582)",competition with immobilised ligand,53
"CDK8 (Homo sapiens, UniProt P49336)",competition with immobilised ligand,87

# A few entries again (sample 1):
target,remaining binding
"PAK5 (Homo sapiens, UniProt Q9P286)",100%
"CDC42BPA (Homo sapiens, UniProt Q5VT25)",100%
"STK24 (Homo sapiens, UniProt Q9Y6E0)",100%
"CDK9 (Homo sapiens, UniProt P50750)",100%
